# Results pooled from the literature.
# Numbered parts are unrelated; each lists some results of a single study.

# Set 1 — technique: RNA Bind-n-Seq; molecule type: RNA; medium: in vitro; tested at: not given; relative to: input RNA pool; direction: higher = stronger binding
# Target: RING finger protein unkempt homolog, zinc fingers 1-6, GST-SBP tag (UNK, Homo sapiens, UniProt Q9C0B0, residues 30-357)
# Setting: RNA with constant flanks, human and mouse sites, ends assumed
# Construct (chain): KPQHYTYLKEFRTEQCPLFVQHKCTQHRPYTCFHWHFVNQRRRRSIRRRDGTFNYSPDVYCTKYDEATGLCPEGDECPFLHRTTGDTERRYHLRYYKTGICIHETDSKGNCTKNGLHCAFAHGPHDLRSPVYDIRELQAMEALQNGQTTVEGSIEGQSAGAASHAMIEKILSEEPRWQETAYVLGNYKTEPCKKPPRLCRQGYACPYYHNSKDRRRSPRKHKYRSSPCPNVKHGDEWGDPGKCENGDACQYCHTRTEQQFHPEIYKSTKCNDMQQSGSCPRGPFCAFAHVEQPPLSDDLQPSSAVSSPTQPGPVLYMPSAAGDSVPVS
Oligonucleotide,bound/input enrichment [ratio]
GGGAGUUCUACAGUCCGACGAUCUGCUUAACUAAUGGGAUAGUGCUAUGGUCACGGAUGGCUUCUUUAGUAAUAAGUGCACUCACUGGUUACAUUUGGAUGGCUUAUGUAACCACAAACAUCAUCUUUCUUGUCUCACUUGAGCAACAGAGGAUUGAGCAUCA,4.07
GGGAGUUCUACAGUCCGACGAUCCGCUUCGACGGGUAUGUCAUUGACGGUGCCACUGCUCUUUGGUGUGCUGCGGGAGCCGGACAUUUUGAAGUUGUUAAACUUCUAGUCAGCCAUGGAGCCAACGUGAACCACACCACAGUCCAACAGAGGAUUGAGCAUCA,0.0796
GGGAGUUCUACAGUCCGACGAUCGAGGAGGUUCUGACUAAUAAGAAGACGACCUUCUUUGGUGGCAAUUCUAUCUCUAUGAUUGAUUACCUCAUCUGGCCCUGGUUUGAACGGCUGGAAGCAAUGAAGUUAAAUGAGUGUGUACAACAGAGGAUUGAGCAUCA,0.264
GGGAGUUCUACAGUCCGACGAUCGAUGGACUACAUUUGUCUCCAAAGGGGAAUGAAUUUUUGUUCUCGCAUCUCUGGCCUUUGAUAGAGAAAAAGGUCUCUUCUCUACCUUUGCUGCUUCCUUACUGGCGGGAUGUAGCAGAACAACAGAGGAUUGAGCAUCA,0.294
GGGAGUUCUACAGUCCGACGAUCCCAACAGGCUCUGCCUCCAAGUGCCAAAAACUCCUAGUAAAGUUUGCGCCUCGCCCGCCGUCCACACCCCAGCGGCCCUGACGCUGUCCCCUCCGCGACCCUCGCCUCUGGAAAAAGUGACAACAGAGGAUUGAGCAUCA,0.513
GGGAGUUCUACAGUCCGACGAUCUUUAAUGUGAUGAUGUAAUUGACGGUUUUUUAUUAUUGUGGUAGGCCUUUUAACAUUUUGUUCUUACACAUACAGUUUUAUGCUCUUUUUUACUCAUUGAAAUGUCACGUACUGUCUGAUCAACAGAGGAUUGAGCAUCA,0.392
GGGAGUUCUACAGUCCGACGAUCCUCACGGCCCAGCAUGAGAACUUCAGGAAAAAGCAGAUUGAAGAGCUGAAGGGACAAGAAGUUAGUCCUAAAGUGUACUUCAUGAAGCAGACCAUUGGGAAUUCCUGUGGCACAAUCGGACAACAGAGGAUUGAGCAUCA,0.115
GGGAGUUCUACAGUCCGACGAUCUCACAGCGAUAGUCCUUAUUGCUAAAGGACUUGGCUUCCCUCGGAGUUUUACUGAUUUAUUUUUUUCUCUUUGCAUUGUGUACAUUAUCAUUGCUACAUCAGUUGUUACAGUGUUGAAAGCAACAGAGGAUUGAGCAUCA,0.279
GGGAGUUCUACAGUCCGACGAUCAAUGUCAUUGAUGCCAAUUUCUGUAUGAAAGGAGAAGACUUGGACUCUCAGGUUGGAGUUAUAGAUUUUUCAAUGUAUCUCAAGGACGGGAACAGCAGUAAAGGUACUGAAGGAGACGGUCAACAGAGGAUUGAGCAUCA,0.495
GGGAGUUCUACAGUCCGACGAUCGAAAAACUUCAGCUCCUGCUUGAAGAACUAAGAGGAGAAUUAGUAGAGAAAACUAAAGAUUUAGAAGAAAUGAAACUGCAGAUAUUAACUCCACAAAAAUUGGAAUUGCUAAGAGCCCAACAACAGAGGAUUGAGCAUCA,1
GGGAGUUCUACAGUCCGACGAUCAUGUACGAGCAUAAUCGAAACGUCACGUGUUUAGUUUUUAUAUGUGUGUACAUAAUUAUACAUAGAGAUAGACUUGUGUAUACACCCUUCGCGCGCACACAUACACACACUCACAUCCUCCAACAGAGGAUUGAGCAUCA,1.16

# Set 2 — technique: protein-binding microarray; molecule type: double-stranded DNA, one strand shown; medium: in vitro; tested at: 250 nM; setting: 60-bp whole probe; added: salmon DNA 0.4 mg/ml; relative to: random background probes; direction: higher = stronger binding; constant ends, left off below: GCCTAGCAC … GTCTTGATTCGCTTGACGCTGCTG
# Target: Interferon regulatory factor 7, full length, phosphomimetic (IRF7, Homo sapiens, UniProt Q92985, residues 1-503, S101K/S471D/S472D/S475D/S476D/S477D/S483D/S484D/S487D)
# Residues (chain): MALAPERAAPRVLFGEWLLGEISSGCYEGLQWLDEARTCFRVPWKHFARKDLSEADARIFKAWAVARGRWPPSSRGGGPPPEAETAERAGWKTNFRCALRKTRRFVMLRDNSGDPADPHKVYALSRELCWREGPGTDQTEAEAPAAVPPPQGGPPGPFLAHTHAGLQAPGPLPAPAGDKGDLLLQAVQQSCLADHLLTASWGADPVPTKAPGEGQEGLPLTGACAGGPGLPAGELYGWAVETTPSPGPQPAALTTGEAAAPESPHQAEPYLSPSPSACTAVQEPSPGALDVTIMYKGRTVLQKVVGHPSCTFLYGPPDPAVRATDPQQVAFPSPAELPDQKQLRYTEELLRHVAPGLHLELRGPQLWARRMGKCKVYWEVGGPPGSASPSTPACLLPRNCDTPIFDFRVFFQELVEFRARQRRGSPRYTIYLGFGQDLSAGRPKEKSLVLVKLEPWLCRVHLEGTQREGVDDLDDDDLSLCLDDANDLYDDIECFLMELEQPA
Oligonucleotide,log fluorescence [z-score]
CGCTTTCTTTAACTCATTTTGTGCTAG,3.8
GACGATCTCAGCTTCGAGACGTGCTAG,-0.122
TCACCTTTCCTTTGCCTACTGTGCTAG,1.18
CTGTCATCATCGTTCCCAGCGTGCTAG,0.474
GACGGTATCCTACTGATGACGTGCTAG,-0.448
TTAGATTTCAGACTGGATTGGTGCTAG,0.0378
TCAGGTTGAACATGAACACTGTGCTAG,-0.239
TCAACTTGTCTTTTCATACTGTGCTAG,0.156
TTAGGTAGCGGGACTGGGTTAGTGCTA,-0.736
GAATTTCCCACTTTCAGTTCGTGCTAG,5
GACGAACTGGGGTTTCGCGACGTGCTA,-0.02
GACGATCTCAGTTTGGAGACGTGCTAG,-0.0184
GACAGACTGGGTTTCGGGACGTGCTAG,1.91
TTAGGTTTCGGGACTGTGTTAGTGCTA,3.92
TCAGCTCTTTCGTTACTTACTGTGCTA,0.61
TTACGACTGGGGACTGGGTTAGTGCTA,-0.156
TTAGCTCTCCTTATCCTTTAGTGCTAG,0.109
GTAGATTCCAGTTTCGATTAGTGCTAG,10.2

# Set 3 — technique: protein-binding microarray; molecule type: double-stranded DNA, one strand shown; medium: in vitro; tested at: not given; direction: higher = stronger binding
# Target: Hepatocyte nuclear factor 3-beta, forkhead domain (FOXA2, Homo sapiens, UniProt Q9Y261, residues 142-269)
# Setting: k-mer, scored over probes, only values ≥0.25
# Construct (chain): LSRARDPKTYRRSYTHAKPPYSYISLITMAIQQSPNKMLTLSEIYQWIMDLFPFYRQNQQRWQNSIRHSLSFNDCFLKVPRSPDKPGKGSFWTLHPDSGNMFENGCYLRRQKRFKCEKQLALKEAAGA
Oligonucleotide,E-score
GTGATGTA,0.281
ATTCGATA,0.291
CCCAAACA,0.299
ATTATCTA,0.329
GTATAACA,0.379
ATCTATCA,0.252
AATTATGA,0.294
ATCAACAC,0.297
ATATTCCG,0.253
TAAAGTAA,0.263
ATCAATAG,0.281
AATATATC,0.339
ACTATATG,0.309
ATTATGAC,0.28
ATTAGATG,0.299
TGCAATAA,0.277
ACATAACA,0.309
ATATGGTC,0.296
AACACTTC,0.266
CAACAACA,0.354
AATAGTAT,0.289
TACATGTA,0.344
AAGTTTGT,0.252
TGTCAACA,0.4
ATAATTAG,0.257

# Set 4 — technique: RNA Bind-n-Seq; molecule type: RNA; medium: in vitro; tested at: 365 nM; relative to: no-protein control; direction: higher = stronger binding
# Target: RNA binding protein fox-1 homolog 2, RRM domain, GST-SBP tag (RBFOX2, Homo sapiens, UniProt O43251-10, residues 100-194)
# Setting: natural RNA segment, single round, ends assumed
# Target sequence (chain): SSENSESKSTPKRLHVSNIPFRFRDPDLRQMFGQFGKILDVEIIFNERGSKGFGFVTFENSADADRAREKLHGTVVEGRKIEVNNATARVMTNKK
Oligonucleotide,RBNS enrichment (R)
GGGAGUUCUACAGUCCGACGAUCAUAAGAGUCAGCAUGGAGAGCCCCUGCUAAUGGAGUACAGCCGCCAGGAGCUACUCAGGAAGGAACGUCUGGUCCUAACCAGUGAGCACUGGUUAGUACUGGUCCCCUUCUGGAAUUCUCGGGUGCCAA,0.184
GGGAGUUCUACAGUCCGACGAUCUCAACACAAAGUCUACUUAUGCUUCUUUGCAUUAUGGUUAAACAAUUAAAAAAAAAAAAAGGACUCACUCUGCCUGCCGGCUGGUGUCUUUUAUUCUACUGGGUUGGAAUUGGAAUUCUCGGGUGCCAA,0.456
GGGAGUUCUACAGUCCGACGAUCUAUCGUUUUGCUUUGCUGACAUGUUUAUAAAGAAAGACCAUCAUACUUAAUAGUCUUUGGAGGUUUGUAAGGUGUUUUUUUGUUUUGUUUUAAUGUAUUUUAUUGAUUAUUGGAAUUCUCGGGUGCCAA,1.21
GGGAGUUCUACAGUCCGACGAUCAAAACUAAUUUAGGUUCCAAUAGUUGUGCAGAACUUGUGUUUCUUGGUGAUUCUCCUCAAGUACUAGCUGCCUAAGCUACAGAGGGCACUGGCCUGCUCCUACAGAAGGAUGGAAUUCUCGGGUGCCAA,0.413
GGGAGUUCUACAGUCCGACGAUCUUACAAACUCAAGAAAAACAGACUCACUUGAAAAAAUGGAUGCCAGUCACCUGGUUCCCACUACUGUCGUAGCAGAUAGCGAAGGGACAAUCUGAGACUUGUAGAGAUGAUGGAAUUCUCGGGUGCCAA,0.383
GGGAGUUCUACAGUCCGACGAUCGCACACCCCCUCUCUGUCCUCAGACUGCAGUCCACACGUGCAACUUUUCUGUUUGCACGUGUUUUAUUAAUCAGCAUACUCCUUUUCUGUUUGGAUUUAUAUCCCUCUAAUGGAAUUCUCGGGUGCCAA,0.742
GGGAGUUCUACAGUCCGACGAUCACACUUUUUCCCUGUUAGAAUUCUUUGCAUUUUUGUGUUUGUAACAGAAACGCCUUAAGACACUAUGUUUGGGAAUAUAGGAAACUAUGUGUGUCCCAAGGAAAUCCCUGUGGAAUUCUCGGGUGCCAA,0.443
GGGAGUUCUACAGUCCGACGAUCUCAGGUUAAUGAUUUAUUUUUUGACUAAAUGUGCAAUUUCUUAUCACUAGAUAACUUUCAGUAUCAGUGGUGGUUACUUAUUACUUAAAUCAGAGGAAGGAUUUUAUAAAUGGAAUUCUCGGGUGCCAA,0.449
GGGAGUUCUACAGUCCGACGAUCACACCAUGUUGGCCAGGCUGGUCUCGAACUCCUGACCUCAAGUGAUCCACCCGCCUCAGUCUCCCAAAGUGCUGAGAUUACAGGCAUGAGUCACUACGCCCGGCCCAUGUUGGAAUUCUCGGGUGCCAA,0.199
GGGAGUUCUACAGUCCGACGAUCUAUAGACAGAAAUAAUAAGCCACCCUGGGUGUAAACUUGAUUUUCUUUAUUGAGAUGUAUCAUGUAUUGAAUGAGUGAACCAGAAAAUUAGAAGAUGGUCAAAAAAAGUCUGGAAUUCUCGGGUGCCAA,3.04
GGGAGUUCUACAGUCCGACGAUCGCAAGAAACAGUGUGAGCUACUGCCACGCUGAAAACUACCUGUGGGUUAAGGAUGUAGUUCCUUUGUAAGGGUGGGCAGGCCUCGUAAGAAAGAUGUAGCAGCAUAUUCAUGGAAUUCUCGGGUGCCAA,2.79
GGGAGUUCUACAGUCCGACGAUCCCGUCAGCGAUUGUUGUGUUACCUUCUGGUGUUCCCUCACUGAUUGUGGACAAACCUGGCAGUUGAGCUUUGCAGUCAAUUAUGCCGUAUCCCUGUGCAAACUCCCAUGUUGGAAUUCUCGGGUGCCAA,0.29

# Excerpt of the above (set 3):
Oligonucleotide,E-score
ATTATGAC,0.28
ATTAGATG,0.299
TGCAATAA,0.277
ACATAACA,0.309
